# Measured values gathered from unrelated publications.
# Protocols differ between the studies behind these lines. “And” joins repeats or separate records; there may be more than shown. Numbers after ± are the reported error.
SMILES,target or system,assay,test system,setting,scale,endpoint,value
CCN(CCCCOc1ccc(CCC(=O)N2CCC(Cc3ccccc3)CC2)cc1OC)Cc1ccccc1,,,"Sprague-Dawley rats, both sexes, faeces","oral gavage, 25 mg/kg, 6 to 12 h",baseline: dose,excretion rate,0.143 ± 0.115%
CSCC[C@H](NC(=O)CNC(=O)[C@H](CCCCN)NC(=O)[C@H](CC(C)C)NC(=O)[C@@H]1CCCN1C(=O)[C@H](CO)NC(=O)[C@H](Cc1c[nH]cn1)NC(=O)[C@H](Cc1c[nH]c2ccccc12)NC(=O)[C@H](CCCNC(=N)N)NC(=O)[C@H](CC(C)C)NC(=O)[C@H](CCCNC(=N)N)NC(=O)[C@H](Cc1c[nH]c2ccccc12)NC(=O)[C@H](CS)NC(=O)CCCCCNC(=O)CN1CCN(CC(=O)O)CCN(CC(=O)O)CCN(CC(=O)O)CC1)C(=O)O [copper-64 labelled],,ex vivo biodistribution,"C57BL/6J mice bearing B16-F10 tumours, liver","intravenous, 1.85 MBq, 0.5 h",,tissue uptake,23.9 %ID/g
N=C(N)NCCC[C@H](NC(=O)[C@H](CCCNC(=N)N)NC(=O)[C@H](CCCNC(=N)N)NC(=O)[C@H](CCC(N)=O)NC(=O)[C@H](CCCNC(=N)N)NC(=O)[C@H](CCCNC(=N)N)NC(=O)[C@H](CCCCN)NC(=O)[C@H](CCCCN)NC(=O)[C@H](CCCNC(=N)N)NC(=O)CNC(=O)[C@H](Cc1ccc(O)cc1)NC(=O)[C@H](Cc1ccccc1)NC(=O)[C@H](Cc1ccccc1)NC(=O)[C@H](Cc1ccccc1)NC(=O)Cc1ccc2ccccc2c1)C(=O)O,,,C57BL/6 mice,"intraperitoneal, 10 mg/kg, 12 h",direction not given,health score,5
Cc1ccc(OCCN(C)C)cc1C(=O)N[C@H](C)c1cc(-c2scnc2C)nc2ccccc12,Vero E6,,,125 µM,,viability,1.4% and 1.2%
COC(=O)C[C@H](NC(=O)[C@H](Cc1ccc(-c2ccccc2)cc1)NC(=O)c1ccc(-c2ccc(OP(=O)(O)O)cc2)cc1)C(=O)OC,,,PBS,"pH 7.4, before phosphatase treatment",,critical micelle concentration,138 µM
O=C1NC2(CC2)COc2ncc(F)cc2[C@H]2COCCN2c2ccn3ncc1c3n2,,,"Sprague-Dawley rat, male, serum","oral, 2.5 mg/kg/day, end of treatment, 4-week subacute toxicity",,serum potassium,4.44 ± 0.18 mmol/L
CC(C)[C@@H]1NC(=O)CNC(=O)[C@H](CC(N)=O)NC(=O)[C@H](CCCNC(=N)N)NC(=O)[C@H](Cc2ccc(O)cc2)NC(=O)[C@H](C(C)C)NC(=O)[C@@H](NC(=O)[C@@H](NC(=O)[C@H](CC(N)=O)NC(=O)[C@H](Cc2c[nH]c3ccccc23)NC(=O)[C@H](C)NC(=O)[C@H](Cc2ccccc2)NC(=O)CNC(=O)[C@H](CCCCN)NC(=O)[C@H](Cc2ccccc2)NC(=O)[C@H](Cc2ccccc2)NC(=O)[C@H](CCCCN)NC(=O)OCC2c3ccccc3-c3ccccc32)C(C)C)CSSC[C@@H](C(=O)N[C@@H](Cc2c[nH]cn2)C(=O)N[C@@H](CCCNC(=N)N)C(=O)N[C@@H](CCCNC(=N)N)C(=O)N[C@@H](C)C(=O)N[C@@H](CC(N)=O)C(N)=O)NC(=O)[C@H](C(C)C)NC(=O)[C@H](CCCNC(=N)N)NC1=O,,,"ICR mouse, blood","intramammary, 5 mg/kg, day 5, 3 d dosing",,glucose,1.63 ± 0.07 mmol/L
COc1ccc(CNc2ccc3c(c2)S(=O)(=O)C=C3)cc1,,,"male C57BL/6 mice, blood","intraperitoneal, 20 mg/kg, day 8, group average",,mean corpuscular volume,51.9 fL
CSCC[C@H](N)C(=O)N[C@@H](C)C(=O)N[C@@H](CCCNC(=N)N)C(=O)N[C@@H](CCCNC(=N)N)C(=O)N[C@@H](CC(=O)O)C(=O)N[C@@H](CCCCN)C(=O)N[C@H](C(=O)N[C@@H](CC(=O)O)C(=O)N[C@@H](Cc1ccccc1)C(=O)N[C@@H](C)C(=O)N[C@@H](CCCNC(=N)N)C(=O)N[C@@H](CCCNC(=N)N)C(=O)N[C@@H](CCCNC(=N)N)C(=O)N[C@@H](CCCNC(=N)N)C(=O)NCCCCCC(=O)NCCCCC(NC(=O)CCCCCNC(=O)[C@H](CCCNC(=N)N)NC(=O)[C@H](CCCNC(=N)N)NC(=O)[C@H](CCCNC(=N)N)NC(=O)[C@H](CCCNC(=N)N)NC(=O)[C@H](C)NC(=O)[C@H](Cc1ccccc1)NC(=O)[C@H](CC(=O)O)NC(=O)[C@@H](NC(=O)[C@H](CCCCN)NC(=O)[C@H](CC(=O)O)NC(=O)[C@H](CCCNC(=N)N)NC(=O)[C@H](CCCNC(=N)N)NC(=O)[C@H](C)NC(=O)[C@@H](N)CCSC)[C@@H](C)O)C(=O)NCCCCC(NC(=O)C(CCCCNC(=O)CCCCCNC(=O)[C@H](CCCNC(=N)N)NC(=O)[C@H](CCCNC(=N)N)NC(=O)[C@H](CCCNC(=N)N)NC(=O)[C@H](CCCNC(=N)N)NC(=O)[C@H](C)NC(=O)[C@H](Cc1ccccc1)NC(=O)[C@H](CC(=O)O)NC(=O)[C@@H](NC(=O)[C@H](CCCCN)NC(=O)[C@H](CC(=O)O)NC(=O)[C@H](CCCNC(=N)N)NC(=O)[C@H](CCCNC(=N)N)NC(=O)[C@H](C)NC(=O)[C@@H](N)CCSC)[C@@H](C)O)NC(=O)CCCCCNC(=O)[C@H](CCCNC(=N)N)NC(=O)[C@H](CCCNC(=N)N)NC(=O)[C@H](CCCNC(=N)N)NC(=O)[C@H](CCCNC(=N)N)NC(=O)[C@H](C)NC(=O)[C@H](Cc1ccccc1)NC(=O)[C@H](CC(=O)O)NC(=O)[C@@H](NC(=O)[C@H](CCCCN)NC(=O)[C@H](CC(=O)O)NC(=O)[C@H](CCCNC(=N)N)NC(=O)[C@H](CCCNC(=N)N)NC(=O)[C@H](C)NC(=O)[C@@H](N)CCSC)[C@@H](C)O)C(N)=O)[C@@H](C)O (stereo partly shown),,,"C57BL/6 mouse female, heart","dose not given, 6 h",baseline: total,tissue distribution,0.95% and 0.67% and 1.01%
CC(C)[C@H](NC(=O)[C@@H](NC(=O)[C@H](CCCNC(=N)N)NC(=O)[C@H](CCCNC(=N)N)NC(=O)[C@H](CCCNC(=N)N)NC(=O)[C@H](CCC(N)=O)NC(=O)[C@H](CCCNC(=N)N)NC(=O)[C@H](CCCNC(=N)N)NC(=O)[C@H](CCCCN)NC(=O)[C@H](CCCCN)NC(=O)[C@H](CCCNC(=N)N)NC(=O)CN)[C@@H](C)O)C(=O)N[C@H](C(=O)N[C@@H](CO)C(=O)N1CCC[C@H]1C(=O)O)[C@@H](C)O,,,"ICR mice, male, stomach","intranasal, 20 mg/kg daily, 4 weeks",,organ weight,0.461 ± 0.128 g
CC[C@H](C)[C@H](NC(=O)[C@H](Cc1ccc(O)cc1)NC(=O)[C@@H](NC(=O)[C@H](CCCNC(=N)N)NC(=O)[C@@H](N)CC(=O)O)C(C)C)C(=O)N[C@@H](Cc1c[nH]cn1)C(=O)N1CCC[C@H]1C(=O)O,,LC-MS/MS,"Beagle dog both sexes, plasma","subcutaneous, 10 mg/kg/day, day 0, median noncompartmental",,Cmax,1.1 µg/mL
COc1cnc2cccc(N3CCc4c(cc(Cn5ccnc5)cc4-c4cn(C)nc4C(F)(F)F)C3=O)c2c1,,,"BALB/c nude mice, MV4-11 xenograft","intraperitoneal, 75 mg/kg, day 28",,body weight,22.2 g and 23 g and 21.5 g and 23.8 g and 23.1 g and 23.2 g and 26 g
CC(C)C[C@H](NC(=O)[C@H](C)NC(=O)[C@H](Cc1cn(CCc2ccc(O)c(C=O)c2)nn1)NC(=O)[C@H](Cc1ccccc1)NC(=O)CCNC(=S)Nc1ccc2c(c1)C(=O)OC21c2ccc(O)cc2Oc2cc(O)ccc21)C(=O)N[C@@H](CC(=O)O)C(=O)N[C@@H](Cc1c[nH]c2ccccc12)C(=O)N[C@@H](CO)C(=O)N[C@@H](Cc1c[nH]c2ccccc12)C(=O)N[C@@H](CC(C)C)C(=O)N[C@@H](CCC(N)=O)C(=O)N[C@H](C(=O)N[C@@H](CCC(=O)O)C(N)=O)[C@@H](C)O,,dynamic light scattering,PBS/DMSO,5000 nM,,hydrodynamic diameter,1210 ± 187 nm
CC[C@H](C)[C@H](NC(=O)[C@H](CCCCN)NC(=O)CNC(=O)[C@H](CC(C)C)NC(=O)[C@H](Cc1ccccc1)NC(=O)[C@H](CCCCN)NC(=O)[C@H](CO)NC(=O)[C@H](Cc1ccccc1)NC(=O)[C@H](Cc1c[nH]c2ccccc12)NC(=O)[C@H](CCC(N)=O)NC(=O)[C@@H](NC(=O)[C@H](Cc1ccccc1)NC(=O)CCCCCNC(=O)CN1CCN(CC(=O)O)CCN(CC(=O)O)CCN(CC(=O)O)CC1)C(C)C)C(=O)N[C@@H](CCC(=O)O)C(=O)N1CCC[C@H]1C(=O)N[C@@H](CC(=O)O)C(=O)N[C@H](C(=O)N[C@@H](CO)C(=O)N[C@@H](CCC(N)=O)C(=O)N[C@H](C(=O)N[C@@H](CCC(N)=O)C(=O)N[C@@H](CC(=O)O)C(=O)N1CCC[C@H]1C(=O)N[C@@H](CC(N)=O)C(=O)N[C@@H](CC(=O)O)C(=O)N[C@@H](CCC(N)=O)C(=O)N[C@@H](Cc1ccc(O)cc1)C(=O)N[C@@H](CCC(=O)O)C(=O)N1CCC[C@H]1C(=O)N[C@@H](Cc1ccccc1)C(=O)O)C(C)C)C(C)C [copper-64 labelled],,dynamic PET,"mouse, CT26 tumour, checkpoint inhibitor-treated, tumour","intravenous, 100 µCi/mouse, 50 s",,SUVmean,0.24 SUV
CC[C@H](C)[C@H](NC(=O)[C@H](CCCNC(=N)N)NC(=O)[C@H](CCCCN)NC(=O)[C@H](Cc1ccc(O)cc1)NC(=O)[C@H](CC(=O)O)NC(=O)[C@H](C)NC(=O)CNC(=O)CCOCCOCCOCCNC(=O)CN1CCN(CC(=O)O)CCN(CC(=O)O)CCN(CC(=O)O)CC1)C(=O)N[C@H](C(=O)N[C@H](C(=O)N[C@@H](CCCCN)C(=O)N[C@H](C(=O)N[C@@H](CC(N)=O)C(N)=O)C(C)C)C(C)C)[C@@H](C)O [copper-64 labelled],,ex vivo gamma counting,"C57BL/6J male mice, B16-F10 tumour, spleen","intravenous, 1.85 MBq, 5 min",,tissue uptake,1.42 ± 0.212 %ID/g
O=C(c1cc(Cc2n[nH]c(=O)c3ccccc23)ccc1F)N1CC(CNC2CC2)C1,,,male Wistar Han rat,"oral, 30 mg/kg, day 1",,Cmax,2.55 µg/mL
Cc1ccc(N2CCC(N(C)C)CC2)cc1C(=O)N[C@H](C)c1cc(-c2cnn(C)c2)nc2ccccc12,Vero E6,,,15.62 µM,,viability,85.6% and 85.3% and 83.9%
CC[C@H](C)[C@H](NC(=O)CNC(=O)[C@H](Cc1c[nH]cn1)NC(=O)[C@H](CC(C)C)NC(=O)CNC(=O)[C@H](CC(C)C)NC(=O)[C@H](CCCCN)NC(=O)[C@H](Cc1ccccc1)NC(=O)[C@H](CC(C)C)NC(=O)[C@H](CCCCN)NC(=O)CNC(=O)[C@H](Cc1c[nH]c2ccccc12)NC(=O)[C@H](Cc1ccccc1)NC(=O)CN)C(=O)NCC(=O)N[C@@H](CC(C)C)C(=O)N[C@@H](CC(C)C)C(=O)N[C@@H](Cc1c[nH]cn1)C(=O)N[C@@H](CC(C)C)C(=O)N[C@@H](Cc1c[nH]cn1)C(=O)N[C@@H](CC(C)C)C(N)=O,,,"zebrafish embryos 4 hpf, E3 medium",1 h,,acute toxic concentration,1 µM
C=C/C=C/C[C@@H](C)[C@@H](O)[C@H]1C(=O)N[C@@H](CC)C(=O)N(C)CC(=O)N(C)[C@@H](CC(C)C)C(=O)N[C@@H](C(C)C)C(=O)N(C)[C@@H](CC(C)C)C(=O)N[C@@H](C)C(=O)N[C@H](C)C(=O)N(C)[C@@H](CC(C)C)C(=O)N(C)[C@@H](CC(C)C)C(=O)N(C)[C@@H](C(C)C)C(=O)N1C,,,"Wistar Kyoto rat, male, plasma","ip, 0.5 mg/kg/day, day 28, at sacrifice",,plasma K+ level,4.6 ± 0.3 mmol/L
